Results pooled from the literature.
A part holds a random share of what one study measured.
Chain of UniProt Q15349 (whole entry, looked up): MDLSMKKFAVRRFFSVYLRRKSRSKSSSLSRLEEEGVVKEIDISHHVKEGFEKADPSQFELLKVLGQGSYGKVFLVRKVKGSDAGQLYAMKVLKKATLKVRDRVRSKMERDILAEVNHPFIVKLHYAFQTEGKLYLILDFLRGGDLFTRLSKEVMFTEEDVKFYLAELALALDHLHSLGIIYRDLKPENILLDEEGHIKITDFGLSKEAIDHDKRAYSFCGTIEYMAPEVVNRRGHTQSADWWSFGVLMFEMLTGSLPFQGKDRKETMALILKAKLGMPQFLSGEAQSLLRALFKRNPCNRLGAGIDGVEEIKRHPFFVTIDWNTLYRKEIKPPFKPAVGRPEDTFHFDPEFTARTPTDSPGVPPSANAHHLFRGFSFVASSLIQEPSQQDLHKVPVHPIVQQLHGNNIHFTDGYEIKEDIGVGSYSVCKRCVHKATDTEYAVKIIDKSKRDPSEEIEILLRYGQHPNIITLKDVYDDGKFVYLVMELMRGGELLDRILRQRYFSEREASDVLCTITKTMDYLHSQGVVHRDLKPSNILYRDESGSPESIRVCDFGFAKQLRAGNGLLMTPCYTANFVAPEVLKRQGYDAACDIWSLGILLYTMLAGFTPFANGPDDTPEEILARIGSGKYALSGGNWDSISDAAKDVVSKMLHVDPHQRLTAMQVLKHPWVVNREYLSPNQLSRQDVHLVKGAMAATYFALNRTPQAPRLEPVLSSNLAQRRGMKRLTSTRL
Chain of UniProt Q5T601 (whole entry, looked up): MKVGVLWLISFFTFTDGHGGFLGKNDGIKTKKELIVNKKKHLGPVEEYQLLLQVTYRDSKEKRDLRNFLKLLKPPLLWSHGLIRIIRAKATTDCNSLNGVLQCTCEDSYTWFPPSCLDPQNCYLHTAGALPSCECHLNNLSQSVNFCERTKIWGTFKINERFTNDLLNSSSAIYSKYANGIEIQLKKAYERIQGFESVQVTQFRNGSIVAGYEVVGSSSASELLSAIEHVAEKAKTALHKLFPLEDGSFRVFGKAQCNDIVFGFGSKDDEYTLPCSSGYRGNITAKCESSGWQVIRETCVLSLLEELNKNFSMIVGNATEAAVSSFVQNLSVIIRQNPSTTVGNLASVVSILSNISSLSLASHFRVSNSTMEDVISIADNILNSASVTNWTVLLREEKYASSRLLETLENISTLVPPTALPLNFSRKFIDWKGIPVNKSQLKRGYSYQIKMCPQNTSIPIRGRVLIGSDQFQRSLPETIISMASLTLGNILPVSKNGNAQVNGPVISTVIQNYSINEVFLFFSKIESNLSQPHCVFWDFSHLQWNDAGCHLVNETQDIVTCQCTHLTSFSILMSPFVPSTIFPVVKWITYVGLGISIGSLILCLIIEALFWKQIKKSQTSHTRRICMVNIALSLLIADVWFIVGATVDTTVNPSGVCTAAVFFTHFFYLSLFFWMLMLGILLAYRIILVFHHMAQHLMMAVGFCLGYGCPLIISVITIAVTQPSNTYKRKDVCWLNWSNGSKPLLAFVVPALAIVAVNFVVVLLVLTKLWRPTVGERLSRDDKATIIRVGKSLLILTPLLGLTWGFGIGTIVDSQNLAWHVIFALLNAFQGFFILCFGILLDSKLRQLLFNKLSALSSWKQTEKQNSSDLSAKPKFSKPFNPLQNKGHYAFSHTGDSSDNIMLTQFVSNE
Chain of UniProt O15075 (whole entry, looked up): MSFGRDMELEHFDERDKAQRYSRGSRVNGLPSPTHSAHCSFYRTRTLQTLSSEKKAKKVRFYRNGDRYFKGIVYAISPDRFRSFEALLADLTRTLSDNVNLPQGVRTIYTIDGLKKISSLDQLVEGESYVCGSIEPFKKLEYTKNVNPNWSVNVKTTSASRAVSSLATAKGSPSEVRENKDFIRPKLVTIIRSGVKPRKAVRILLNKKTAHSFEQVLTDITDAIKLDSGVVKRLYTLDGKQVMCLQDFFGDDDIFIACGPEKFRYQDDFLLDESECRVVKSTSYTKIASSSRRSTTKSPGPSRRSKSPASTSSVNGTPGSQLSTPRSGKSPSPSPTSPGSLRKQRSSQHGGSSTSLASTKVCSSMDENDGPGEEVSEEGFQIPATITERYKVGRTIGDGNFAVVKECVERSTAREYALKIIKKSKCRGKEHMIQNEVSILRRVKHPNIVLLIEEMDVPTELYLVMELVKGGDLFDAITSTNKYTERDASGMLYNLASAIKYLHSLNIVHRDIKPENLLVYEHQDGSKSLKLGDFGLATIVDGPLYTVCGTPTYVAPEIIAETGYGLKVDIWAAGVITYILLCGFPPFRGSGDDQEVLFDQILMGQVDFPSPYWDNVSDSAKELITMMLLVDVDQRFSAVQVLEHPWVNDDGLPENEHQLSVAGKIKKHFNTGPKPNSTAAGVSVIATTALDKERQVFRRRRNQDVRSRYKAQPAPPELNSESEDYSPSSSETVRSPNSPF
Chain of UniProt P31152 (whole entry, looked up): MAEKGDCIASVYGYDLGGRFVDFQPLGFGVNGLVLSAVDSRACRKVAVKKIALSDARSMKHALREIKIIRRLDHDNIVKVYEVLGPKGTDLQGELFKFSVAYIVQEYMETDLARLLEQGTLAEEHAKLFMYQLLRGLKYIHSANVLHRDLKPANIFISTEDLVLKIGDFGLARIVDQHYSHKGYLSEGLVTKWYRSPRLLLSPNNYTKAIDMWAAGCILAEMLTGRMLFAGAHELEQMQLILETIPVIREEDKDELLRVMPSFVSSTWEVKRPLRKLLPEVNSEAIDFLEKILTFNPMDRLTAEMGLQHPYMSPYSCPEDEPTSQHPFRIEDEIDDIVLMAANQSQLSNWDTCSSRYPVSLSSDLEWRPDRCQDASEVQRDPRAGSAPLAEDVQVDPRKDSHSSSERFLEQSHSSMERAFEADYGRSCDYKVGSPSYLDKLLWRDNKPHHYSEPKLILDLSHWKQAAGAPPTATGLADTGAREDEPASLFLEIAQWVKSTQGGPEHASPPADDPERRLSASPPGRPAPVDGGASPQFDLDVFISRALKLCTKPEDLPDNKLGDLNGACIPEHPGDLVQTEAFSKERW
Chain of UniProt P35367 (whole entry, looked up): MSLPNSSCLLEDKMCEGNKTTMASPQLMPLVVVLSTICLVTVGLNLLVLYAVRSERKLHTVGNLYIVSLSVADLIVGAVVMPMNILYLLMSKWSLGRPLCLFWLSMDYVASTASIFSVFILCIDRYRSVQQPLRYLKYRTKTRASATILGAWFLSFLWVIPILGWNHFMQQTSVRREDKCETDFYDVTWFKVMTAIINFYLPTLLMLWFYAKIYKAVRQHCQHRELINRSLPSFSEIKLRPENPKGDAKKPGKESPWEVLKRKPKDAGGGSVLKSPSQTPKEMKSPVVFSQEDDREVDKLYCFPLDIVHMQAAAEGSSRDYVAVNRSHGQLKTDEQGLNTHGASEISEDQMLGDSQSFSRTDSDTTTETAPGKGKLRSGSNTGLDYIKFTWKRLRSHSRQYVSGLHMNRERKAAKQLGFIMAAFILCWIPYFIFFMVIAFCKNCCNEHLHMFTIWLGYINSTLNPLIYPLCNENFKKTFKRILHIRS
Chain of UniProt O00418 (whole entry, looked up): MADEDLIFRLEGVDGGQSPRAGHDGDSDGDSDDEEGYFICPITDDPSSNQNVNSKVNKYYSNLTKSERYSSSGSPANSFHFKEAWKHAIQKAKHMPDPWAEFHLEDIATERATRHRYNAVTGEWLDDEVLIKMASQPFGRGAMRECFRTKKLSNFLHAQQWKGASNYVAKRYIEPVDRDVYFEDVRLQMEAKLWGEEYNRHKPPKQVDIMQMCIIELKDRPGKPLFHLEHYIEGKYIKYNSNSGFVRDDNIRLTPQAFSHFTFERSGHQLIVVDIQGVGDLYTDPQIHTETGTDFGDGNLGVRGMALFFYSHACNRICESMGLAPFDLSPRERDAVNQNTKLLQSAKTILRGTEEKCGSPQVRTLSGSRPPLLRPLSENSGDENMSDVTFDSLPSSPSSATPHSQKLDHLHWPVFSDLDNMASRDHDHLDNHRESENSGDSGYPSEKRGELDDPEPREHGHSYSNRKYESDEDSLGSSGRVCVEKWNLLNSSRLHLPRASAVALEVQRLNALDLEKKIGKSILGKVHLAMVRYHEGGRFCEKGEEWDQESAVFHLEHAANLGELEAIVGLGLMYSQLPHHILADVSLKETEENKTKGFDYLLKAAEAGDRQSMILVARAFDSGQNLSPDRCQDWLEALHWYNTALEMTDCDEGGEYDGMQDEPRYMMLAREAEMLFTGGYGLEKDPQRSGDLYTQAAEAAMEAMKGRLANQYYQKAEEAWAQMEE
Chain of UniProt Q9UPZ9 (whole entry, looked up): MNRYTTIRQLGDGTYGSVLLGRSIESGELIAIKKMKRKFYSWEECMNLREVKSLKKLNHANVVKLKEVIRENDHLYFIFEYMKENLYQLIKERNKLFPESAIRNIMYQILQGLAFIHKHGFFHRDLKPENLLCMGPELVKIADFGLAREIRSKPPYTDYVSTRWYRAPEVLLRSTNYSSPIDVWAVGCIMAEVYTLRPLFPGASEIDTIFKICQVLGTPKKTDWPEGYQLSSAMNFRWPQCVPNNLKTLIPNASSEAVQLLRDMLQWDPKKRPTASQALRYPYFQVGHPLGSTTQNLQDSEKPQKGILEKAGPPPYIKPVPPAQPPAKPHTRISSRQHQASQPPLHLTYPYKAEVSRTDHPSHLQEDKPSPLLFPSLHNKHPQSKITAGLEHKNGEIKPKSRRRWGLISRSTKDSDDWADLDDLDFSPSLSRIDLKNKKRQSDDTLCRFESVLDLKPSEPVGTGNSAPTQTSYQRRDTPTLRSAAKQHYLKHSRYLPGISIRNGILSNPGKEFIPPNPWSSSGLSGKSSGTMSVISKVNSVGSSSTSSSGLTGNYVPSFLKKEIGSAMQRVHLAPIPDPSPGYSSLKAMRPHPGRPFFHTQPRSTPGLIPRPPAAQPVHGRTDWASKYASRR

Set 1
SMILES: CNCc1ccccc1-c1csc([C@@H](C)Nc2nc(C)nc3cc(OC)c(OC)cc23)c1
Read-out: cell-free assay
Technique: competition with immobilised ligand
Tested at: 1 µM
Quantity: remaining binding
Tyrosine-protein kinase Tec (TEC, Homo sapiens, UniProt P42680): 100%
Cyclin-dependent kinase 3 (CDK3, Homo sapiens, UniProt Q00526): 100%
Peripheral plasma membrane protein CASK (CASK, Homo sapiens, UniProt O14936): 81%
Ribosomal protein S6 kinase alpha-2, N-terminal kinase domain (RPS6KA2, Homo sapiens, UniProt Q15349): 100%
Serine/threonine-protein kinase Nek5 (NEK5, Homo sapiens, UniProt Q6P3R8): 99%
Mitogen-activated protein kinase 4 (MAPK4, Homo sapiens, UniProt P31152): 94%
RAC-beta serine/threonine-protein kinase (AKT2, Homo sapiens, UniProt P31751): 72%
Phosphatidylinositol 4,5-bisphosphate 3-kinase catalytic subunit alpha isoform (PIK3CA, Homo sapiens, UniProt P42336, E545K): 78%
Serine/threonine-protein kinase RIO1 (RIOK1, Homo sapiens, UniProt Q9BRS2): 100%
Hepatocyte growth factor receptor (MET, Homo sapiens, UniProt P08581, Y1235D): 100%
Serine/threonine-protein kinase Nek9 (NEK9, Homo sapiens, UniProt Q8TD19): 100%
Serine/threonine-protein kinase TAO2 (TAOK2, Homo sapiens, UniProt Q9UL54): 86%
Protein kinase C iota type (PRKCI, Homo sapiens, UniProt P41743): 100%
Serine/threonine-protein kinase ICK (CILK1, Homo sapiens, UniProt Q9UPZ9): 82%
Serine/threonine-protein kinase WNK4 (WNK4, Homo sapiens, UniProt Q96J92): 100%

Set 2
Structure (SMILES): CC(C)S(=O)(=O)c1ccc2nccc(Nc3ccc4sc(C5CCCC5)nc4c3)c2c1.Cl
Read-out: kinase activity
Mode: inhibitor
Tested at: 1 µM
Quantity: remaining activity
[Pyruvate dehydrogenase (acetyl-transferring)] kinase isozyme 4, mitochondrial (PDK4, Homo sapiens, UniProt Q16654): 100%
Serine/threonine-protein kinase DCLK1 (DCLK1, Homo sapiens, UniProt O15075): 97%
Eukaryotic elongation factor 2 kinase (EEF2K, Homo sapiens, UniProt O00418): 103%
Calcium/calmodulin-dependent protein kinase type 1B (PNCK, Homo sapiens, UniProt Q6P2M8): 119%
Discoidin domain-containing receptor 2 (DDR2, Homo sapiens, UniProt Q16832): 108%
Serine/threonine-protein kinase 25 (STK25, Homo sapiens, UniProt O00506): 110%
Ribosomal protein S6 kinase alpha-2 (RPS6KA2, Homo sapiens, UniProt Q15349): 96%
Ephrin type-B receptor 1 (EPHB1, Homo sapiens, UniProt P54762): 96%
Serine/threonine-protein kinase tousled-like 1 (TLK1, Homo sapiens, UniProt Q9UKI8): 91%
Tyrosine-protein kinase ZAP-70 (ZAP70, Homo sapiens, UniProt P43403): 103%

Set 3
Target: Diamine acetyltransferase 1 (Homo sapiens, UniProt P21673)
Mode: inhibitor
Tested at: 10 µM
Reference: control
Quantity: remaining activity
Target sequence (P21673 1-171): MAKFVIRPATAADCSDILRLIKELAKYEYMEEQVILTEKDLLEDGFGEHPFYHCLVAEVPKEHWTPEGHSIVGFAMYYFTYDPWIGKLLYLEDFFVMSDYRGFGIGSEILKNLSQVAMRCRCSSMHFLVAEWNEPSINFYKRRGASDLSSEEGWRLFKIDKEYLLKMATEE
CC(=O)O[C@H]1[C@H](O[C@H]2CC[C@]34C[C@]35CC[C@]3(C)[C@@H]([C@@]6(C)CC[C@@H](C(C)(C)O)O6)[C@@H](O)C[C@@]3(C)[C@@H]5C[C@H](O[C@@H]3O[C@H](CO)[C@@H](O)[C@H](O)[C@H]3O)[C@H]4C2(C)C)OC[C@@H](OC(C)=O)[C@@H]1O: 84.1%
Cc1cc(O)cc(O[C@@H]2O[C@H](CO)[C@@H](O)[C@H](O)[C@H]2O)c1: 104%
NCCCNCCCCNCCCN: 83.7%
O=c1oc2cc(O)ccc2c2oc3cc(O)ccc3c12: 101%
CCC/C=C1\OC(=O)C2=C1CC[C@H](O)[C@H]2O: 81.2%
OCC1=C[C@@H](O)[C@@H]2C=CO[C@@H](O[C@@H]3O[C@H](CO)[C@@H](O)[C@H](O)[C@H]3O)[C@H]12: 94.7%

Set 4
Compound: NC(N)=NC(=O)c1nc(Cl)c(N2CCCCCC2)nc1N
Read-out: β-arrestin recruitment
Mode: agonist
Technique: PRESTO-Tango
Tested at: 10 µM
Reference: untreated
Quantity: fold over basal
Hydroxycarboxylic acid receptor 2 (HCAR2, Homo sapiens, UniProt Q8TDS4): 0.79 fold
Growth hormone-releasing hormone receptor (GHRHR, Homo sapiens, UniProt Q02643): 0.69 fold
Histamine H1 receptor (HRH1, Homo sapiens, UniProt P35367): 1.22 fold
Cannabinoid receptor 1 (CNR1, Homo sapiens, UniProt P21554): 0.83
Probable G-protein coupled receptor 27 (Homo sapiens, UniProt Q9NS67): 0.97
Probable G-protein coupled receptor 34 (Homo sapiens, UniProt Q9UPC5): 0.85
C-X-C chemokine receptor type 6 (CXCR6, Homo sapiens, UniProt O00574): 0.61
Oxoeicosanoid receptor 1 (OXER1, Homo sapiens, UniProt Q8TDS5): 0.74
ADGRF1 (Homo sapiens, UniProt Q5T601): 0.9
Hydroxycarboxylic acid receptor 1 (HCAR1, Homo sapiens, UniProt Q9BXC0): 0.9 fold
Adenosine receptor A2b (ADORA2B, Homo sapiens, UniProt P29275): 1.02
Adhesion G protein-coupled receptor L4 (ADGRL4, Homo sapiens, UniProt Q9HBW9): 1.03
5-hydroxytryptamine receptor 2C (HTR2C, Homo sapiens, UniProt P28335, I156V/I160V): 0.36
